# Published values collected from several papers.
# Numbers after ± are the reported error.
# cas9: CRISPR-associated endonuclease Cas9/Csn1 (cas9, Streptococcus pyogenes serotype M1, UniProt Q99ZW2)
# Chain of UniProt Q99ZW2 (whole entry, looked up): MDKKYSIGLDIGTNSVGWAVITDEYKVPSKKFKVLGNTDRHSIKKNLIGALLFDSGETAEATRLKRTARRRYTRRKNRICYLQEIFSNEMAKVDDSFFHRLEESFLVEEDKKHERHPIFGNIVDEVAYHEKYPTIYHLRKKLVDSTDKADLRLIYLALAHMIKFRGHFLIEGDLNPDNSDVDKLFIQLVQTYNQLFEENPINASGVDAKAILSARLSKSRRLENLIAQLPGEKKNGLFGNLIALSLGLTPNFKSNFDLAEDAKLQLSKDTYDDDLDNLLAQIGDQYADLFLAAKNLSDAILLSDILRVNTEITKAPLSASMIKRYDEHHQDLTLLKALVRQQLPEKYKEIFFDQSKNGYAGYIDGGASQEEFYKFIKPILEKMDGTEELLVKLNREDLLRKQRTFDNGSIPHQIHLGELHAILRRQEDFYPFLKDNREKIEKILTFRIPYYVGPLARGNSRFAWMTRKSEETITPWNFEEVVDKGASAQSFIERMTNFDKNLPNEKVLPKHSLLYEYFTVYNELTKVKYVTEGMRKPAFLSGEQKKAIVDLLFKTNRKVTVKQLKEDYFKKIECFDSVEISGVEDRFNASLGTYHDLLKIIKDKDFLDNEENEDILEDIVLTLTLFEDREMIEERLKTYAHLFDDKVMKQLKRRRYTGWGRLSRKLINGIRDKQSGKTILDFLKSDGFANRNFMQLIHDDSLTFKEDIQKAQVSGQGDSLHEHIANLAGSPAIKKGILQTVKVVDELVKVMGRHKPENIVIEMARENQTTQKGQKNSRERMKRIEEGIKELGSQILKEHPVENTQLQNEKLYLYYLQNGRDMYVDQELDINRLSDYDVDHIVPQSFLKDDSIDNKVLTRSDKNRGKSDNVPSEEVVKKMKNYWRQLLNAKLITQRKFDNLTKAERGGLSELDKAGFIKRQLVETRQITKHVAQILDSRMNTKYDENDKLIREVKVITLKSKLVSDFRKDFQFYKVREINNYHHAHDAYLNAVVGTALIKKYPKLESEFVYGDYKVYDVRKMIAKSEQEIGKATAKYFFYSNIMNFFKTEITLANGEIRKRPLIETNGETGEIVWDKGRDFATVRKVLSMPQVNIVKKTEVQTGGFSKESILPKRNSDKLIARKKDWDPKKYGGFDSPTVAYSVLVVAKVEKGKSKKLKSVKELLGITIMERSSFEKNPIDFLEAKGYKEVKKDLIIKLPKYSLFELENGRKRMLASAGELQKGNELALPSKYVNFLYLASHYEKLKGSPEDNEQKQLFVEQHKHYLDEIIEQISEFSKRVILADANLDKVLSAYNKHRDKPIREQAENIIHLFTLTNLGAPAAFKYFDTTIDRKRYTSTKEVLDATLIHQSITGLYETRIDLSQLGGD
# Chain of UniProt P20813 (whole entry, looked up): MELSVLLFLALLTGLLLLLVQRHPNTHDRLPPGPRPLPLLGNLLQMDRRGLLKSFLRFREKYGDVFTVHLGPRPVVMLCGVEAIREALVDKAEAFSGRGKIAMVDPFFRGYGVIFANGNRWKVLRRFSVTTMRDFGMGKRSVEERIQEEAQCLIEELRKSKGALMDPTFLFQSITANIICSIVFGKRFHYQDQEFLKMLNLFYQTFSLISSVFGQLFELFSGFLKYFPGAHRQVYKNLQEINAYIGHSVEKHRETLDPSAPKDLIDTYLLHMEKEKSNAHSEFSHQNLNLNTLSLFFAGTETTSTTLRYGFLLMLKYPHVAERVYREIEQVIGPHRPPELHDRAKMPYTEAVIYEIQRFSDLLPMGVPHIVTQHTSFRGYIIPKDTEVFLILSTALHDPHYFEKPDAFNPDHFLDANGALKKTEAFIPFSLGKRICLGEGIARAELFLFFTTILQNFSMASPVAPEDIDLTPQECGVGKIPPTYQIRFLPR
# Chain of UniProt P23946 (whole entry, looked up): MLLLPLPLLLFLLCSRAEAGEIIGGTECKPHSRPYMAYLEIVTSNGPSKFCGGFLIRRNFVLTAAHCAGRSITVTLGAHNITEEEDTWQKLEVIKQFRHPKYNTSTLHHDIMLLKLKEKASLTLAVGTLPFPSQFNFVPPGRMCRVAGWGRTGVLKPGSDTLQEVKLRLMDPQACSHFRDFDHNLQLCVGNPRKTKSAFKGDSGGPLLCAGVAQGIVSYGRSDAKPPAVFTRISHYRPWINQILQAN
# Chain of UniProt P41143 (whole entry, looked up): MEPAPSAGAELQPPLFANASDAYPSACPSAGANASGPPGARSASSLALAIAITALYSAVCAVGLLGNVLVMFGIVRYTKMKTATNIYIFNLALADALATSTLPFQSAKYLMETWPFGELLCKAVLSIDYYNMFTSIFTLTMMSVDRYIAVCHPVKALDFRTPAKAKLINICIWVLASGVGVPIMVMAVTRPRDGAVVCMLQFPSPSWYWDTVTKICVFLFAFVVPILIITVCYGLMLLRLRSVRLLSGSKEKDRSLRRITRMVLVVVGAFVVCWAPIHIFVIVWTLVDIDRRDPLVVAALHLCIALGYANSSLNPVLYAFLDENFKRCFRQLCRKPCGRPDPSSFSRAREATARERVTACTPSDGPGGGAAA
# Chain of UniProt P55060 (whole entry, looked up): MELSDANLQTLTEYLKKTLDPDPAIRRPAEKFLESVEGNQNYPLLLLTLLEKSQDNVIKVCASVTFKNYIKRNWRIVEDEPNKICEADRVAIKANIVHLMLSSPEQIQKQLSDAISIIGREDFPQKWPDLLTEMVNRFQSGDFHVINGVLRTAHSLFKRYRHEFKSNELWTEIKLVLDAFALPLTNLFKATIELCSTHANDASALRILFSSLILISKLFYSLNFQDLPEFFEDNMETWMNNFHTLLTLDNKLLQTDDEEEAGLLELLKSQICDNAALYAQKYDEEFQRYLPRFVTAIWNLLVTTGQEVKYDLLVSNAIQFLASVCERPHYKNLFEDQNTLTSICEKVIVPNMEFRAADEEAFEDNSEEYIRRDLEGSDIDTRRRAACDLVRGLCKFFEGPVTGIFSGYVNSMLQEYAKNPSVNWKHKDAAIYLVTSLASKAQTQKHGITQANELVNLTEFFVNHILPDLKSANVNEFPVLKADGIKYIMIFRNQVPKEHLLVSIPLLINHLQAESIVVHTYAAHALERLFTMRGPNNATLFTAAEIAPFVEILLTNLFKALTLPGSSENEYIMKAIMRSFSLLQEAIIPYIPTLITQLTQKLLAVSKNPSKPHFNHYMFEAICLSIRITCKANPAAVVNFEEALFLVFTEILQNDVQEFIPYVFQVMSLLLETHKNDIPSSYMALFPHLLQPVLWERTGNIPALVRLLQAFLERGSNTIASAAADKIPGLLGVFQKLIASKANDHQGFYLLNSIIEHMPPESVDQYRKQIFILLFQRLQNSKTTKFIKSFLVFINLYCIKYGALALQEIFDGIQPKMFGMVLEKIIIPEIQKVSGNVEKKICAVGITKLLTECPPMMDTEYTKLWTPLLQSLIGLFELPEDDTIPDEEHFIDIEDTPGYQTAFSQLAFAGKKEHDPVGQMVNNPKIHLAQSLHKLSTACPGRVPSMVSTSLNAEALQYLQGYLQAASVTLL
# Chain of UniProt P62593 (whole entry, looked up): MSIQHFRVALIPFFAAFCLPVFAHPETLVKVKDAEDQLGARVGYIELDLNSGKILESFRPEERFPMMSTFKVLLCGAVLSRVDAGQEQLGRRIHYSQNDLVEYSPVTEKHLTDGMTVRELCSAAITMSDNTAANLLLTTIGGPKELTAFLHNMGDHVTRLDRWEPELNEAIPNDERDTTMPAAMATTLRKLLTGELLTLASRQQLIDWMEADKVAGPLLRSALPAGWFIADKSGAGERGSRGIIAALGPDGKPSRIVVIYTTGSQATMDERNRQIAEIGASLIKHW
# Chain of UniProt P22303 (whole entry, looked up): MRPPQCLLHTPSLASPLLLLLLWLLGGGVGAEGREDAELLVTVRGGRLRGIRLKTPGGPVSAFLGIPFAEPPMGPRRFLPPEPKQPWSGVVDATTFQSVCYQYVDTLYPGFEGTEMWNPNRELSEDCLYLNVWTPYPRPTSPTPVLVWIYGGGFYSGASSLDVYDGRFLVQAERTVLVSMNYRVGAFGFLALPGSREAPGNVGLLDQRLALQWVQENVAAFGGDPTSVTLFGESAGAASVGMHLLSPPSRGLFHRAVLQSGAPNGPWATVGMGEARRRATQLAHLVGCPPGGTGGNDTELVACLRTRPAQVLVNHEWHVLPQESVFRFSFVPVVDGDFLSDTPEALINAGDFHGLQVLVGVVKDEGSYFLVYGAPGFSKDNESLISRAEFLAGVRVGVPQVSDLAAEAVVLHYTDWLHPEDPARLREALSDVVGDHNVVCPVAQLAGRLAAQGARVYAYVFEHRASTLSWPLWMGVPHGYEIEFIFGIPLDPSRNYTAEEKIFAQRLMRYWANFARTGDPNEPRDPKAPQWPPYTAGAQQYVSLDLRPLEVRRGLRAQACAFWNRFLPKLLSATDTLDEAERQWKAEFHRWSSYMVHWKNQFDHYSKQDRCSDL
# Chain of UniProt P05181 (whole entry, looked up): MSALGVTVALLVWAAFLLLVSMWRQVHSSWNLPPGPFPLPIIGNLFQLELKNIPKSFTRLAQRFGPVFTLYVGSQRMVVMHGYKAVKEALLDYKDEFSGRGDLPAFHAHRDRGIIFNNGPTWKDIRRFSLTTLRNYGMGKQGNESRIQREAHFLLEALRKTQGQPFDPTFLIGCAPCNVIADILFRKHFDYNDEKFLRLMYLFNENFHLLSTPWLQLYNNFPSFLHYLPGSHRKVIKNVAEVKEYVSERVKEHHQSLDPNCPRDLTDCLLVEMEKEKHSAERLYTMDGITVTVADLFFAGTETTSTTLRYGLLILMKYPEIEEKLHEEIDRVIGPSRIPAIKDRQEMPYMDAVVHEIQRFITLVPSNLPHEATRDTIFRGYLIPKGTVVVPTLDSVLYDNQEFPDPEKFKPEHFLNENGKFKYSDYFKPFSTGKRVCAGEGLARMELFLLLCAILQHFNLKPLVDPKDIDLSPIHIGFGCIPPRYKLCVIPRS
Structure (SMILES),target,assay,system,setting,IC50 [µM]
CCCC[C@@H](NC(=O)[C@@H](N)Cc1c(C)cc(O)cc1C)C(=O)NCC(=O)N[C@@H](Cc1ccc(F)cc1)C(=O)N(C)CCC[C@@]1(c2ccc(F)cc2)OCc2cc(C#N)ccc21,"OPRD1 (Homo sapiens, UniProt P41143)",,,,0.0017
CC[C@H](C)[C@H](NC(=O)[C@H](CC(C)C)NC(=O)[C@H](CC(C)C)NC(=O)[C@H](CCCNC(=N)N)NC(=O)[C@H](CCCNC(=N)N)NC(=O)[C@@H](N)CCCCN)C(=O)N[C@@H](CC(C)C)C(=O)NCC(=O)N[C@@H](CCCNC(=N)N)C(=O)O,"HLA class I histocompatibility antigen, B alpha chain, allele B*27:05 (Homo sapiens, UniProt P01889)","peptide binding, fluorescence anisotropy",,"18 h, 4 °C",0.111
CC(C)C[C@H](NC(=O)[C@@H](N)CCC(=O)O)C(=O)N1CCC[C@H]1C(=O)N[C@@H](CC(=O)O)C(=O)N[C@@H](CCC(=O)O)C(=O)N[C@@H](Cc1ccccc1)C(=O)N[C@H](C(=O)N[C@H](C(=O)N[C@H](C(=O)N[C@H](C(=O)N[C@H](C(=O)O)C(C)C)[C@@H](C)O)C(C)C)C(C)C)C(C)C,"HLA class I histocompatibility antigen, B alpha chain (Homo sapiens, UniProt P01889)","peptide-MHC binding, radioligand competition binding",,,> 70
COc1cc(Nc2ncc(F)c(Nc3ccc4c(n3)NC(=O)C(C)(C)O4)n2)cc(OC)c1OC,"Neprilysin (MME, Homo sapiens, UniProt P08473)","enzyme activity, inhibitor",,,> 10
C[C@H]1CN(c2n[nH]c3nc(N[C@H]4CC[C@H](NS(=O)(=O)CCC(F)(F)F)CC4)ncc23)CCO1,"Exportin-2 (Homo sapiens, UniProt P55060)",biochemical,,,≥ 20
Cc1ccccc1,"Cytochrome P450 2E1 (CYP2E1, Homo sapiens, UniProt P05181)","enzyme activity, inhibitor",,"30 min, pH 7.4",70
CC(C)(c1ccccc1)N1CCCCC1,"Cytochrome P450 2B6 (CYP2B6, Homo sapiens, UniProt P20813)","enzyme activity, inhibitor",,"30 min, pH 7.4",10.2
CC(C)(C)NC(=O)N[C@H](C(=O)N1C[C@H]2[C@@H]([C@H]1C(=O)NC(CC1CCC1)C(=O)C(N)=O)C2(C)C)C(C)(C)C (stereo partly drawn),"Chymase (CMA1, Homo sapiens, UniProt P23946)","enzyme activity, inhibitor",,with: FP-biotin 1 µM,4.52
CCN(CC)C(=O)N[C@@H]1C[C@@H]2c3cccc4[nH]cc(c34)C[C@H]2N(C)C1,"Beta-lactamase TEM (bla, Escherichia coli, UniProt P62593)",inhibitor,,,> 30
COc1cccc(C2c3ccc(OS(=O)(=O)c4ccccc4)cc3Oc3nc4c(c(N)c32)CCCC4)c1 (stereo not drawn),"ACHE (Homo sapiens, UniProt P22303)","enzyme activity, inhibitor",,,2.46
CC(C)(C)NCC(O)c1cc(O)cc(O)c1 (stereo not drawn),"Gag polyprotein, nucleocapsid protein p7 (gag, Human immunodeficiency virus type 1 group M subtype B, UniProt P04591)","NCp7-RNA binding, AlphaScreen",HIV-1,"with: 25 nM NCp7, 12.5 nM RNA",22.7
COc1cccc2c1C(=O)c1c(O)c3c(c(O)c1C2=O)C[C@@](O)(C(=O)CO)C[C@@H]3O[C@H]1C[C@H](N)[C@H](O)[C@H](C)O1,cas9,linear substrate,Streptococcus pyogenes,,5 to 10
CC[C@H](C)[C@H](NC(=O)[C@@H](N)CCC(=O)O)C(=O)N[C@@H](CCCCN)C(=O)N[C@@H](CCC(=O)O)C(=O)N[C@@H](CO)C(=O)N[C@H](C(=O)N[C@@H](CCC(N)=O)C(=O)N[C@H](C(=O)N[C@@H](Cc1ccccc1)C(=O)O)[C@@H](C)O)C(C)C,"HLA class I histocompatibility antigen, B alpha chain, allele B*18:01 (Homo sapiens, UniProt P01889)","peptide-MHC binding, radioligand competition binding",,,> 70
Cc1cc2c(C(C)C)c(O)c(O)c(C=O)c2c(O)c1-c1c(C)cc2c(C(C)C)c(O)c(O)c(C=O)c2c1O,cas9,linear substrate,Streptococcus pyogenes,,10 to 20
CCN1CCN(Cc2ccc(Nc3nc4cnc(Oc5ccnc(NC(C)=O)c5)nc4n3C)cc2C(F)(F)F)CC1,"Protein kinase 6 (Plasmodium falciparum, UniProt Q8IDW1)","enzyme activity, inhibitor",,,1.7 ± 0.6
